Published values pooled from the literature.
Lines come from different studies, so protocols differ.
Target: Beta-2 adrenergic receptor (ADRB2, Homo sapiens, UniProt P07550)

SMILES	test	test system	setting	how to read	endpoint	value
N[C@H](C(=O)N1CCCC1)C1CCN(c2nccc3c(-c4ncc(Cl)cc4Cl)cccc23)CC1	functional response, antagonist	–	10 µM	–	inhibition	-8%
CCN(CC)CCOc1ccc(-c2nnn(Cc3ccc(OC)cc3)c2N)cc1	radioligand binding	HEK293	10 µM, safety profiling	–	inhibition	-13.4%
CCOC(=O)[C@](CC)(CCCSCCOCCOCCNC(=O)c1ccc(-c2c3ccc(=N)c(S(=O)(=O)O)c-3oc3c(S(=O)(=O)O)c(N)ccc23)c(C(=O)O)c1)NC(=O)c1ccc(C2CC2)c(Cc2ccc(F)cc2)n1	ligand displacement, radioligand	–	10 µM	–	inhibition	7%
CN[C@@H]1[C@H](O)[C@H](NC)[C@H]2O[C@]3(O)[C@H](O[C@@H]2[C@H]1O)O[C@H](C)C[C@H]3NC(=O)Cc1ccc(Cl)cn1	ligand displacement, radioligand	–	10 µM	–	inhibition	-18%
Cc1cc(-c2ccc3ccccc3c2)nnc1NCCN1CCN(C)CC1	antagonist	–	concentration not given	–	antagonist activity	negative
Cl.Fc1ccc(Nc2nc(NC3CCNCC3)c3cc(Cl)ccc3n2)cc1F	β-arrestin2 recruitment, PathHunter and GloSensor	–	–	relative to: GloSensor IC50 over PathHunter IC50	bias factor	4 fold
Cc1sc2c(c1C)C(c1ccc(Cl)cc1)=NC(CC(=O)OC(C)(C)C)c1nnc(C)n1-2 (stereo not shown)	ligand displacement, radioligand	–	1 µM	–	inhibition	4%
Cc1cc(Nc2nc(C[C@@]3(C(=O)O)CCN(Cc4cccc(Cl)c4F)[C@H](C)C3)cc(C)c2F)[nH]n1	agonist	–	10 µM	–	activation	0.02%
C/C(=N\OCCCN1CCCCC1)c1ccc(C(F)(F)F)cc1	agonist, cAMP	–	10 µM	–	activation	5.13%
CCc1nnc(-c2c(OC)cc(-c3cnc4cc(-c5cnn(C)c5)ccn34)cc2OC)o1	specific binding, antagonist, radioligand binding	–	10 µM	relative to: control specific binding	inhibition	0%
